Assay results of several laboratories.
Lines come from different studies, so protocols differ. ± marks the error that the study gave.
UCHL1: Ubiquitin carboxyl-terminal hydrolase isozyme L1 (UCHL1, Homo sapiens, UniProt P09936)
Chain of UniProt P09936 (whole entry, looked up): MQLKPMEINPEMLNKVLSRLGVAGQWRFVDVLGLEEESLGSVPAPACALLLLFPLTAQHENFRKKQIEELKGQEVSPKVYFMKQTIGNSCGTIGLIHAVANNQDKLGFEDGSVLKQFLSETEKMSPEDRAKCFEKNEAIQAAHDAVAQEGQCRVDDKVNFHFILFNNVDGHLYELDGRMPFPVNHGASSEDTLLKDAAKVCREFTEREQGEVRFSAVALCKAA

SMILES	tested on	assay	conditions	quantity	value
COc1cccc2c1C(=O)c1c(O)c3c(c(O)c1C2=O)C[C@@](O)(C(=O)CO)C[C@@H]3O[C@H]1C[C@H](N)[C@H](O)[C@H](C)O1	MCF7	cell viability, MTT	48 h	IC50	0.21 ± 0.01 µg/mL
O=C(Nc1ccc(CN2CCOCC2)c(C(F)(F)F)c1)c1ccc(C#Cc2cccc3cnccc23)cn1	MCF7	cell viability, MTT	72 h	IC50	> 180 µM
C[C@@H]1CC[C@@H]([C@@](C)(O)Cn2cnc3ccccc32)[C@H](OCc2ccccc2)C1	MCF7	cell growth, inhibitor, MTT	72 h	IC50	9.41 µM
Cc1cc(C)c(-c2cc(NC(=O)CCl)n(-c3ccccc3)n2)cc1C	UCHL1	covalent, intact protein LC-MS	12.5 µM	labelling	10.4%
C[C@@H]1CC[C@@H]([C@](O)(CNCc2cccc3ccccc23)COCc2ccccc2)[C@H](OCc2ccccc2)C1	MCF7	cell growth, inhibitor, MTT	72 h	IC50	5.93 µM
C[C@H](Nc1ccc2c(c1)OCCn1cc(N3C(=O)OC[C@H]3C(F)F)nc1-2)C(N)=O	MCF7	western blot, refers to: phospho-S6 Ser235/Ser236	2 h	IC50	0.0683 µM
O=Cc1cc([N+](=O)[O-])c(Cl)cc1Cl	UCHL1	covalent, intact protein LC-MS	12.5 µM	labelling	7.95%
CC(C)(C)c1ccc(CN2CCN(C(c3ccccc3)c3ccc(Cl)cc3)CC2)cc1 (centres unmarked)	MCF7	cell growth	72 h	IC50	31.3 ± 7.8 µM
Cc1nc(NC(=O)N2CCC[C@H]2C(N)=O)sc1-c1ccnc(C(C)(C)C(F)(F)F)c1	MCF7	western blot, refers to: phospho-PKB/Akt Ser473	2 h	IC50	0.0546 µM
O=C1NC(=NCc2cccs2)S/C1=C\c1ccc2ncccc2c1	MCF7	MTS	NCI60 panel	IC50	10 µM
CC(=O)Nc1ccc(Oc2nnc(-c3ccc(Cl)cc3)c3ccccc23)cc1	MCF7	cell growth, MTT		IC50	0.15 µM
C[C@@H]1CC[C@@H]([C@](C)(O)CNCc2ccccc2F)[C@H](OCc2ccccc2)C1	MCF7	cell growth, inhibitor, MTT	72 h	IC50	8.57 µM
Cc1nc(NC(=O)N2CCC[C@H]2C(N)=O)sc1-c1ccnc(C(C)(C)C(F)(F)F)c1	MCF7	growth rate inhibition, CellTiter-Glo	120 h	IC50	1.47 µM
O=C1NCCc2[nH]c(-c3ccncc3)cc21	MCF7	MTS	NCI60 panel	IC50	3.77 µM
COc1ccc(CNC[C@](O)(COCc2ccc(OC)cc2)[C@@H]2CC[C@@H](C)C[C@H]2OCc2ccc(OC)cc2)cc1	MCF7	cell growth, inhibitor, MTT	72 h	IC50	1.42 µM
CCC(=O)N1CCC(COCC(=O)N2CCN(c3nc(-c4cnc(N)nc4C(F)F)nc(N4CCOC[C@@H]4C)n3)CC2)CC1	MCF7	western blot, refers to: phospho-S6 Ser235/Ser236	2 h	IC50	0.135 µM
C[C@H](Nc1ccc2c(c1)OCCn1cc(N3C(=O)OC[C@H]3C(F)F)nc1-2)C(N)=O	MCF7	growth rate inhibition, CellTiter-Glo	120 h	IC50	0.528 µM

Excerpt of the above:
SMILES	tested on	assay	conditions	quantity	value
C[C@H](Nc1ccc2c(c1)OCCn1cc(N3C(=O)OC[C@H]3C(F)F)nc1-2)C(N)=O	MCF7	growth rate inhibition, CellTiter-Glo	120 h	IC50	0.528 µM
CCC(=O)N1CCC(COCC(=O)N2CCN(c3nc(-c4cnc(N)nc4C(F)F)nc(N4CCOC[C@@H]4C)n3)CC2)CC1	MCF7	western blot, refers to: phospho-S6 Ser235/Ser236	2 h	IC50	0.135 µM
C[C@@H]1CC[C@@H]([C@](C)(O)CNCc2ccccc2F)[C@H](OCc2ccccc2)C1	MCF7	cell growth, inhibitor, MTT	72 h	IC50	8.57 µM
